# Results collected from several papers.
# Protocols differ between the studies behind these lines. “And” joins repeats or separate records; there may be more than shown. Numbers after ± are the reported error.
# Chain of UniProt Q00987 (whole entry, looked up): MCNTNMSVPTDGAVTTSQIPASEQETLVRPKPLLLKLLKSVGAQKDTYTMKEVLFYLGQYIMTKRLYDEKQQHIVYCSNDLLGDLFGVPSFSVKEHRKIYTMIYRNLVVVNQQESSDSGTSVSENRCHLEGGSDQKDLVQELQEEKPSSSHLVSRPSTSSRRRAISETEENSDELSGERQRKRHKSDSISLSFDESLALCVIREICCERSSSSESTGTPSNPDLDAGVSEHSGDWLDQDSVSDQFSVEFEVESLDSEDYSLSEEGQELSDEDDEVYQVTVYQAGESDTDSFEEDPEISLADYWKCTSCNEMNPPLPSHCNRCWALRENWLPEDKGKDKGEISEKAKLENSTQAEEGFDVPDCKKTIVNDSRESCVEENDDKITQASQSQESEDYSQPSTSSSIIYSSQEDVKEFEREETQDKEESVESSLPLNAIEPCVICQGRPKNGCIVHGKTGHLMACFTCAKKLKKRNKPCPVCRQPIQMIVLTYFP
# Chain of UniProt P18508 (whole entry, looked up): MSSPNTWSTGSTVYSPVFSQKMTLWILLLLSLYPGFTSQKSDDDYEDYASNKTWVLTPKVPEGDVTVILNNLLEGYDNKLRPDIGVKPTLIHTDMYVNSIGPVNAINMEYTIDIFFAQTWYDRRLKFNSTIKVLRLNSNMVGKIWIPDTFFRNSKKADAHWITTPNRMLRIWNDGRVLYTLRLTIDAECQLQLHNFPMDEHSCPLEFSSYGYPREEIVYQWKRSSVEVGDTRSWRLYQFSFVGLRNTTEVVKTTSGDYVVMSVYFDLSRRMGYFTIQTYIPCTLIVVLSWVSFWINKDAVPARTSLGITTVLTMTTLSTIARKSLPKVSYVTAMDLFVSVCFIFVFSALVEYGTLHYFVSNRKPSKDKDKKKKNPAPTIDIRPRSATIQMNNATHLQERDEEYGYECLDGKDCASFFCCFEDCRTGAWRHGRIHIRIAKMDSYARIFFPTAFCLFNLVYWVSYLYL
# Chain of UniProt P62813 (whole entry, looked up): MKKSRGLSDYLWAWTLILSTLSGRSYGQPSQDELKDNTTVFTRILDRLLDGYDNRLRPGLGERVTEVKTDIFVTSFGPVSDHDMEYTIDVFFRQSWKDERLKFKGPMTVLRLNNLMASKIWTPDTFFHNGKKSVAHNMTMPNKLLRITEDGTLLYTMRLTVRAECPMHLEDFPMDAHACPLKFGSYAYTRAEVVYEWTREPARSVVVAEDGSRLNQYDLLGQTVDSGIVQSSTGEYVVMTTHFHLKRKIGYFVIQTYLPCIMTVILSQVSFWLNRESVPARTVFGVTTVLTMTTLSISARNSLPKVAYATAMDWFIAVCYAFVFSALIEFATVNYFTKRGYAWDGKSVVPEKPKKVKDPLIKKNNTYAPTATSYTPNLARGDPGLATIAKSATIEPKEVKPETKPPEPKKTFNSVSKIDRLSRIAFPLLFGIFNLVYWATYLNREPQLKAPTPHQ
# Chain of UniProt P48426 (whole entry, looked up): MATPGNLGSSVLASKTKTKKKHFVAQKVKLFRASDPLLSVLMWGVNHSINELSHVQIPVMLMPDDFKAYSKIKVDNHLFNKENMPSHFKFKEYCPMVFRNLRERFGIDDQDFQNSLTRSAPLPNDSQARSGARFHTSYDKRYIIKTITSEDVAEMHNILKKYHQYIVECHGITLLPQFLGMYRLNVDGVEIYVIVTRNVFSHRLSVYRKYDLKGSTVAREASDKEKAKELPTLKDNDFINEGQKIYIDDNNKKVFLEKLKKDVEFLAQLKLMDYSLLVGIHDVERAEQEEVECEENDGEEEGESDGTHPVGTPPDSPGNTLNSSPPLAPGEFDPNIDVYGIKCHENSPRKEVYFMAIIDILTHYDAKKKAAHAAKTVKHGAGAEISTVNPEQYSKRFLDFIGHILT
# Chain of UniProt P20273 (whole entry, unmodified, looked up): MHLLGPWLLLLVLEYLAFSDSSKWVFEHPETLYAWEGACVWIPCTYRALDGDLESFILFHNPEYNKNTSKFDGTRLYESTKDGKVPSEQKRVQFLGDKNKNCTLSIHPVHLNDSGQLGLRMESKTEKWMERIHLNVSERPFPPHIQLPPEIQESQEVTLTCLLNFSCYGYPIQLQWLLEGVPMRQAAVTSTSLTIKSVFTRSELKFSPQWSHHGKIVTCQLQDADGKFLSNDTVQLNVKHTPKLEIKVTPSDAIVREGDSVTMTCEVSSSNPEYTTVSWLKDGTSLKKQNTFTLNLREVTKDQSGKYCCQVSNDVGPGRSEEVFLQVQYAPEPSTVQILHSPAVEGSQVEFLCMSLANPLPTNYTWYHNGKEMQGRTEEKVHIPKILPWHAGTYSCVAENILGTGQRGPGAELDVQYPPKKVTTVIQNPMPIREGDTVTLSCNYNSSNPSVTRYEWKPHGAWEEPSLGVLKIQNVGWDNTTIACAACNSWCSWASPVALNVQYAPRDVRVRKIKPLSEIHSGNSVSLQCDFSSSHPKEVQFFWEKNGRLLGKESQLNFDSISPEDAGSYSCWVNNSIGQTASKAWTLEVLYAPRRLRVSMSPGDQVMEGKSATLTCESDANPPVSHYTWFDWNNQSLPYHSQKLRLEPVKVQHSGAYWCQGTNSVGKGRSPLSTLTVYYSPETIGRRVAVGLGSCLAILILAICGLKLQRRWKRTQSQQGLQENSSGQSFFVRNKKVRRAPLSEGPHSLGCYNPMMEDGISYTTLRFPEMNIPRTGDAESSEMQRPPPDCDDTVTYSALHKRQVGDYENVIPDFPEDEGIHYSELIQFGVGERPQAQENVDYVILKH
# Chain of UniProt P21554 (whole entry, unmodified, looked up): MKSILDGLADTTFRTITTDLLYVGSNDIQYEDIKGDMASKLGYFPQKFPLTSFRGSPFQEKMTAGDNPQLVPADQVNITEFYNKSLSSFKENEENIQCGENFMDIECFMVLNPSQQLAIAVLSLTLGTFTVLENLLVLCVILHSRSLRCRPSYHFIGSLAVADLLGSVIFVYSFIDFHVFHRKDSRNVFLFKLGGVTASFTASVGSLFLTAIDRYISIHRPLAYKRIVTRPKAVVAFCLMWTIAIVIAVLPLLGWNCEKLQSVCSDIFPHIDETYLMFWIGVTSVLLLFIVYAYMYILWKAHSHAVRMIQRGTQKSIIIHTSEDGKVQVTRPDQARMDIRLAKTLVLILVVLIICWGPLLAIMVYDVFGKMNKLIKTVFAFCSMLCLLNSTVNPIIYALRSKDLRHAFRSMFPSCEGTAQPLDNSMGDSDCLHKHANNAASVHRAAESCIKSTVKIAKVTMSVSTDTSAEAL
# Chain of UniProt P33533 (whole entry, looked up): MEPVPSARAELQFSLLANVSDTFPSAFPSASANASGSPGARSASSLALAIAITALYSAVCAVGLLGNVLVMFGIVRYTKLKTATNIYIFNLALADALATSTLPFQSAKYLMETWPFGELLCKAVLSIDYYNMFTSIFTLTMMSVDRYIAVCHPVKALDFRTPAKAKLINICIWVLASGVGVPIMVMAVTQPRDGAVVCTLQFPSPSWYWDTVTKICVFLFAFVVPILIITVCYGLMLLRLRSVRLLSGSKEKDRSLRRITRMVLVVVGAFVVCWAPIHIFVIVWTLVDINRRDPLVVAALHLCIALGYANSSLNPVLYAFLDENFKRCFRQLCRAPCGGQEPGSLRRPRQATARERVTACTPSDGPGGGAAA
# Chain of UniProt Q9HBY8 (whole entry, looked up): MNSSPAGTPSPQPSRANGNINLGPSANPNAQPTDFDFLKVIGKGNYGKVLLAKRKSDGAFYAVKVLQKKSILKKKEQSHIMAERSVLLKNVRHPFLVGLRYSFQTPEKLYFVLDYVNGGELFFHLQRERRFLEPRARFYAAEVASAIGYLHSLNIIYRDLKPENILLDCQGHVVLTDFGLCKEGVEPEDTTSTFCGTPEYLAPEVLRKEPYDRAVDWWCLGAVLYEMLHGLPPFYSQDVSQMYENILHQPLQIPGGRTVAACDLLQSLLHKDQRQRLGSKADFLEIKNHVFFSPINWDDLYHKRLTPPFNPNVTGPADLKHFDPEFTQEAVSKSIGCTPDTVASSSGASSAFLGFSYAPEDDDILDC
# Chain of UniProt Q9UNU6 (whole entry, looked up): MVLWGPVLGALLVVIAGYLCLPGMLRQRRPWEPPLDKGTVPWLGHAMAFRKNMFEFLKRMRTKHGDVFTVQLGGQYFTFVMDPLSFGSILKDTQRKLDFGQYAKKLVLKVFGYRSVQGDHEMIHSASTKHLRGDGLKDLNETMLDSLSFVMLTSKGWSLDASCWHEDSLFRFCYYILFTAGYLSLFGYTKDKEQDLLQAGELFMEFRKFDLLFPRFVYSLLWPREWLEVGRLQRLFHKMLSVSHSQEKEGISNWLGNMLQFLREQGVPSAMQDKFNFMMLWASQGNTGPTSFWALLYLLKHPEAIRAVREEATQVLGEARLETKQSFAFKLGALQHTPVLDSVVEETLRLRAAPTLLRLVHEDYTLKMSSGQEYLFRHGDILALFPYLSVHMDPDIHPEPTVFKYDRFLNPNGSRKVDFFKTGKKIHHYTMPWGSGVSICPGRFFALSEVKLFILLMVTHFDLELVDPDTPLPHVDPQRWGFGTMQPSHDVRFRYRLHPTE
# Chain of UniProt P22303 (whole entry, looked up): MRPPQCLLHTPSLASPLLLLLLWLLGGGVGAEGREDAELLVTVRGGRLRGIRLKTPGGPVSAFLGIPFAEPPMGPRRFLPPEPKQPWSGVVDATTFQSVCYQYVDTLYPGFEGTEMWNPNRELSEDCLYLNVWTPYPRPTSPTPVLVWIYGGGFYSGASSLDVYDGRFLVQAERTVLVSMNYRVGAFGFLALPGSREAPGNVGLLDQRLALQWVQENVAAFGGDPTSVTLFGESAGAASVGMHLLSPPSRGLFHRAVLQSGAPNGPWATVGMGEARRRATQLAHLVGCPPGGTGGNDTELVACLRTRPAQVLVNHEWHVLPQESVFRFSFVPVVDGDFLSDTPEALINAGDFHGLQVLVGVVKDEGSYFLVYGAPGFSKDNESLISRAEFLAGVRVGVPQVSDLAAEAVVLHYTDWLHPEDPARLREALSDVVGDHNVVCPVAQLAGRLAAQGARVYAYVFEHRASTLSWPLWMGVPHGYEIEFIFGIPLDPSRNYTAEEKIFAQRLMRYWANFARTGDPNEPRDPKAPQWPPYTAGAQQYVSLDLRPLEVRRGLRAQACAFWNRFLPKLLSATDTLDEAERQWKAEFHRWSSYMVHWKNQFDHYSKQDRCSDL
Structure (SMILES),tested on,assay,test system,conditions,how to read,endpoint,value
O=C(O)c1ccccc1/C=N/Nc1nc(-c2ccccc2Cl)cs1,"Serine/threonine-protein kinase Sgk2 (SGK2, Homo sapiens, UniProt Q9HBY8)","enzyme activity, inhibitor",,1 µM,,inhibition,-0.62%
CC(C)(C)C(=O)OCOP(=O)(OCOC(=O)C(C)(C)C)C1CCCN(O)C1=O (stereo not shown),BT-549,,,,,log GI50,-6.5 log M
Cc1cc(Nc2nc(C[C@@]3(C(=O)O)CCN(Cc4cccc(Cl)c4F)[C@H](C)C3)cc(C)c2F)[nH]n1,"Alpha-1A adrenergic receptor (ADRA1A, Homo sapiens, UniProt P35348)",agonist,,10 µM,,activation,0.25%
Cc1ccc2c(C(C[N+](=O)[O-])c3cccs3)c(-c3ccccc3)[nH]c2c1 (stereo not shown),"Cannabinoid receptor 1 (CNR1, Homo sapiens, UniProt P21554, I169A)","β-arrestin2 recruitment, NanoBiT",,concentration not given,,inhibition,inhibited
O=C(O)c1ccc(-c2nc(-c3ccccc3Cl)c3sccn23)cc1,"Gabrg2/Gabra1, benzodiazepine site (Rattus norvegicus, UniProt P18508+P62813)",radioligand binding,,10 µM,reference: control,specific binding,102%
COc1ccccc1-c1n[nH]c2nc(N[C@H]3CC[C@H](NS(=O)(=O)CC(C)C)CC3)ncc12,,"bead binding, competition bead pull-down, item: LINJ.36.6110",Leishmania donovani extract,10 µM,reference: vehicle,relative abundance,0.53
O=C1NC2(CC2)COc2ncc(F)cc2[C@H]2COCCN2c2ccn3ncc1c3n2,,,"Sprague-Dawley rat, male, serum","oral, 10 mg/kg/day, end of treatment, 4-week subacute toxicity",,serum potassium,4.88 ± 0.94 mmol/L
Cc1ncc([N+](=O)[O-])n1CC(O)Cn1cc(CO[C@]2(C(=O)O)C[C@H](O)[C@@H](NC(=O)CF)[C@H]([C@H](O)[C@H](O)CNC(=O)c3ccc(Oc4ccccc4)cc3)O2)nn1 (stereo partly shown),"B-cell receptor CD22 (CD22, Homo sapiens, UniProt P20273)",isothermal titration calorimetry,,,,-TΔS,0.879 ± 0.126 kJ/mol
C[C@@H]1COCCN1c1nc(NCc2cccnc2C(F)(F)F)c2cccnc2n1,"Acetylcholinesterase (ACHE, Homo sapiens, UniProt P22303)",binding,,CEREP panel,,IC50,> 100 µM
C=C(c1ccccc1)[C@@H](N)P(=O)(O)O,"PAL1 (Petroselinum crispum, UniProt P24481, Y110F)","binding, ITC",,,,ΔH,-45.2 kJ/mol
Nc1ccc(/C=C/C(=O)N2CCc3c(oc4c(-c5ccc(F)cc5)cc(-c5ccc(C(=O)N6CCC(F)(F)CC6)cn5)cc34)C2)cn1,"Mast/stem cell growth factor receptor Kit (KIT, Homo sapiens, UniProt P10721, D816V)","binding, competition with immobilised ligand",,1 µM,,remaining binding,100%
CN(C)[C@H]1C[C@@]23CC[C@@]4(O2)C(=CC[C@]2(C)[C@@H](c5ccc6ccncc6c5)CC[C@H]24)C=C3[C@@H](O)[C@@H]1O,"Phosphatidylinositol 5-phosphate 4-kinase type-2 alpha (PIP4K2A, Homo sapiens, UniProt P48426)","ATP probe labelling, inhibitor, KiNativ profiling",,0.1 µM,,inhibition,-7.8%
CS(C)(=O)=Nc1ccc(-c2ccc(-c3nc4cc(O[C@@H]5CO[C@H]6[C@@H]5OC[C@H]6O)[nH]c4cc3F)cc2)cc1,"Ephrin type-B receptor 4 (EPHB4, Homo sapiens, UniProt P54760)","enzyme activity, inhibitor",,10 µM,,inhibition,12%
OC[C@H]1CNCCN1C[C@@H]1CCCN1C[C@@H](Cc1ccc2ccccc2c1)N1CCN(CCc2ccc(Cl)c(Cl)c2)[C@H](Cc2ccc(O)cc2)C1,"Delta-type opioid receptor (Oprd1, Rattus norvegicus, UniProt P33533)",radioligand binding,rat brain membranes,"500 nM, pH 7.5, 25 °C, together with: 2 nM [3H]DPDPE",,remaining binding,92.2%
CC[C@H](C)[C@@H]1NC(=O)[C@H](CC(C)C)NC(=O)CNC(=O)[C@H](CCCNC(=N)N)NC(=O)[C@H](Cc2c[nH]c3ccccc23)NC(=O)[C@H](CCSC)NC(=O)[C@H](CO)NC(=O)[C@H](CCC(=O)O)NC(=O)[C@H](Cc2ccccc2)NC(=O)[C@H](CC(=O)O)NC(=O)[C@H]([C@@H](C)O)NC(=O)CNC(=O)[C@H](CCC(=O)O)NC(=O)[C@H]([C@@H](C)O)NC(=O)CNC(=O)[C@H](CC(=O)O)NC1=O,"E3 ubiquitin-protein ligase Mdm2 (MDM2, Homo sapiens, UniProt Q00987)","MDM2-ligand binding, inhibitor, AlphaLISA competition",,"0.01221 µM, together with: GST-tagged MDM2 ligand",lower = stronger inhibition,AlphaLISA signal,11600 a.u. and 11900 a.u. and 11100 a.u.
COc1ccccc1-c1n[nH]c2nc(NC3CCN(C(=O)Cc4ccc(F)cc4F)CC3)ncc12,,"bead binding, competition bead pull-down, item: LINJ.03.0360",Leishmania donovani extract,10 µM,reference: vehicle,relative abundance,1.39
O=C1NC(=O)c2c1c1cc(F)c[n+]3c1c1c2c2cc(O)ccc2[n]1[Ru-4]312([N]=C=S)[S+]3CC[S+]1CC[S+]2CC3 (stereo not shown),"Protein-tyrosine kinase 2-beta (PTK2B, Homo sapiens, UniProt Q14289)",enzyme activity,,"100 nM, human enzyme, together with: 10 µM ATP",reference: untreated,remaining activity,40%
CC12CCC(=O)C=C1CCC1C2C=C(c2cccnc2)C2(C)C(=O)CCC12 (stereo not shown),"7-alpha-hydroxycholest-4-en-3-one 12-alpha-hydroxylase (Homo sapiens, UniProt Q9UNU6)",inhibitor,,"80 µM, together with: 7α-hydroxycholest-4-en-3-one 0.5 µM",,remaining activity,105 ± 6%
CC(C)[C@H]1NC(=O)C[C@H]2/C=C/CCSSC[C@@H](NC1=O)C(=O)N[C@H](Cc1cccc3ccccc13)C(=O)NCC(=O)O2,"ALK tyrosine kinase receptor, EML4-ALK fusion (ALK, Homo sapiens, UniProt Q9UM73)",,,10 µM,,inhibition,1.6%
